# Measurements pooled from the literature.
# Each line is one published result; not all experiments were run side by side. Values joined by “and” are separate records of one study, mostly repeats; a detail may differ. Numbers after ± are the reported error.
SMILES,assay,test system,conditions,scale,measurement,value
CC[C@H](C)[C@H](NC(=O)[C@H](CCCCN)NC(=O)CNC(=O)[C@H](CC(C)C)NC(=O)[C@H](Cc1ccccc1)NC(=O)[C@H](CCCCN)NC(=O)[C@H](CO)NC(=O)[C@H](Cc1ccccc1)NC(=O)[C@H](Cc1c[nH]c2ccccc12)NC(=O)[C@H](CCC(N)=O)NC(=O)[C@@H](NC(=O)[C@H](Cc1ccccc1)NC(=O)CCCCCNC(=O)CN1CCN(CC(=O)O)CCN(CC(=O)O)CCN(CC(=O)O)CC1)C(C)C)C(=O)N[C@@H](CCC(=O)O)C(=O)N1CCC[C@H]1C(=O)N[C@@H](CC(=O)O)C(=O)N[C@H](C(=O)N[C@@H](CO)C(=O)N[C@@H](CCC(N)=O)C(=O)N[C@H](C(=O)N[C@@H](CCC(N)=O)C(=O)N[C@@H](CC(=O)O)C(=O)N1CCC[C@H]1C(=O)N[C@@H](CC(N)=O)C(=O)N[C@@H](CC(=O)O)C(=O)N[C@@H](CCC(N)=O)C(=O)N[C@@H](Cc1ccc(O)cc1)C(=O)N[C@@H](CCC(=O)O)C(=O)N1CCC[C@H]1C(=O)N[C@@H](Cc1ccccc1)C(=O)O)C(C)C)C(C)C [copper-64 labelled],dynamic PET,"mouse, CT26 tumour, untreated, tumour","intravenous, 100 µCi/mouse, 1620 s",,SUVmean,0.72 SUV
CCc1nn(C)c2nc(-c3ccc(C(=O)O)cc3)nc(NCc3ccccc3)c12,,NSG mice,"dose not given, day 3 of treatment",,body weight,22.9 g and 23.1 g and 23.2 g and 21.4 g
O=C1NC2(CC2)COc2ncc(F)cc2[C@H]2COCCN2c2ccn3ncc1c3n2,,"Sprague-Dawley rat, female, serum","oral, 20 mg/kg/day, 4 weeks daily, end of treatment",,albumin,31.8 ± 5.3 g/L
CSCC[C@H](NC(=O)CNC(=O)[C@H](CCCCN)NC(=O)[C@H](CC(C)C)NC(=O)[C@@H]1CCCN1C(=O)[C@H](CO)NC(=O)[C@H](Cc1c[nH]cn1)NC(=O)[C@H](Cc1c[nH]c2ccccc12)NC(=O)[C@H](CCCNC(=N)N)NC(=O)[C@H](CC(C)C)NC(=O)[C@H](CCCNC(=N)N)NC(=O)[C@H](Cc1c[nH]c2ccccc12)NC(=O)[C@H](CS)NC(=O)CCCCCNC(=O)CN1CCN(CC(=O)O)CCN(CC(=O)O)CCN(CC(=O)O)CC1)C(=O)O [copper-64 labelled],ex vivo biodistribution,"BALB/c nude mice, bladder","intravenous, dose not given, 1 h, Huh-7 tumour-bearing",,tissue uptake,2.1 %ID/g
CCCC/C=C/C(=O)N[C@@H](Cc1csc2ccccc12)C(=O)N[C@H]1COC(=O)[C@@H]2C[C@@H](C)CN2C(=O)[C@H](C)NC(=O)[C@@H]2CCCCN2C(=O)[C@@H]2CCCN2C1=O,LDH release,human ESC-derived lung organoids,"concentration not given, 2 days",,cytotoxicity,1.27% and 1.5% and 1.69%
CCOP(=O)([O-])CNC(=O)CN1CCN(CC(=O)NCP(=O)([O-])OCC)CCN(CC(=O)NCP(=O)([O-])OCC)CCN(CC(=O)NCP(=O)([O-])OCC)CC1.[177Lu+3],,"Sprague-Dawley rat, bone","intravenous, dose not given, 2 h",,biodistribution,0.036 ± 0.027 % injected dose/organ
COc1cnc2cccc(N3CCc4c(cc(Cn5ccnc5)cc4-c4cn(C)nc4C(F)(F)F)C3=O)c2c1,,"BALB/c nude mice, MV4-11 xenograft","intraperitoneal, 50 mg/kg, day 31",,body weight,19.8 g and 20.2 g and 23.5 g and 24.5 g and 22.1 g
CSCC[C@H](N)C(=O)N[C@@H](C)C(=O)N[C@@H](Cc1c[nH]c2ccccc12)C(=O)N[C@@H](Cc1c[nH]cn1)C(=O)N[C@@H](CC(=O)O)C(=O)N[C@@H](CC(=O)O)C(=O)N[C@@H](CCC(=O)O)C(=O)N[C@@H](CCC(=O)O)C(=O)N[C@@H](Cc1ccccc1)C(=O)N[C@@H](C)C(=O)N[C@@H](CCCNC(=N)N)C(=O)N[C@@H](CCCNC(=N)N)C(=O)N[C@@H](CCCNC(=N)N)C(=O)N[C@@H](CCCNC(=N)N)C(=O)NCCCCCC(=O)NCCCCC(NC(=O)CCCCCNC(=O)[C@H](CCCNC(=N)N)NC(=O)[C@H](CCCNC(=N)N)NC(=O)[C@H](CCCNC(=N)N)NC(=O)[C@H](CCCNC(=N)N)NC(=O)[C@H](C)NC(=O)[C@H](Cc1ccccc1)NC(=O)[C@H](CCC(=O)O)NC(=O)[C@H](CCC(=O)O)NC(=O)[C@H](CC(=O)O)NC(=O)[C@H](CC(=O)O)NC(=O)[C@H](Cc1c[nH]cn1)NC(=O)[C@H](Cc1c[nH]c2ccccc12)NC(=O)[C@H](C)NC(=O)[C@@H](N)CCSC)C(=O)NCCCCC(NC(=O)C(CCCCNC(=O)CCCCCNC(=O)[C@H](CCCNC(=N)N)NC(=O)[C@H](CCCNC(=N)N)NC(=O)[C@H](CCCNC(=N)N)NC(=O)[C@H](CCCNC(=N)N)NC(=O)[C@H](C)NC(=O)[C@H](Cc1ccccc1)NC(=O)[C@H](CCC(=O)O)NC(=O)[C@H](CCC(=O)O)NC(=O)[C@H](CC(=O)O)NC(=O)[C@H](CC(=O)O)NC(=O)[C@H](Cc1c[nH]cn1)NC(=O)[C@H](Cc1c[nH]c2ccccc12)NC(=O)[C@H](C)NC(=O)[C@@H](N)CCSC)NC(=O)CCCCCNC(=O)[C@H](CCCNC(=N)N)NC(=O)[C@H](CCCNC(=N)N)NC(=O)[C@H](CCCNC(=N)N)NC(=O)[C@H](CCCNC(=N)N)NC(=O)[C@H](C)NC(=O)[C@H](Cc1ccccc1)NC(=O)[C@H](CCC(=O)O)NC(=O)[C@H](CCC(=O)O)NC(=O)[C@H](CC(=O)O)NC(=O)[C@H](CC(=O)O)NC(=O)[C@H](Cc1c[nH]cn1)NC(=O)[C@H](Cc1c[nH]c2ccccc12)NC(=O)[C@H](C)NC(=O)[C@@H](N)CCSC)C(N)=O (stereo partly drawn),,"C57BL/6 mouse female, pancreas","dose not given, 6 h",reference: total,tissue distribution,0.85% and 1.33% and 0.15%
N=C(N)NCCC[C@@H](NC(=O)[C@H](N)Cc1c[nH]c2ccccc12)C(=O)N[C@H](CCCCN)C(=O)N[C@H](Cc1c[nH]c2ccccc12)C(=O)N[C@H](CCCNC(=N)N)C(=O)N[C@H](CCCCN)C(=O)N[C@H](Cc1c[nH]c2ccccc12)C(=O)N[C@H](CCCNC(=N)N)C(=O)N[C@H](CCCCN)C(=O)N[C@H](Cc1c[nH]c2ccccc12)C(=O)N[C@H](CCCNC(=N)N)C(=O)N[C@H](CCCCN)C(N)=O,,"mouse, urine",20 mg/kg,,Kim-1 level,51 ng/mL
CC[C@H](C)[C@H](NC(=O)[C@H](CCCN)NC(=O)[C@H](CCCNC(=N)N)NC(=O)[C@@H]1CCCN1C(=O)[C@@H]1CCCN1C(=O)[C@H](CCCNC(=N)N)NC(=O)[C@@H]1CCCN1C(=O)[C@H](CCCNC(=N)N)NC(=O)[C@@H]1CCCN1C(=O)[C@H](CC(C)C)NC(=O)[C@H](Cc1ccc(O)cc1)NC(=O)[C@@H]1CCCN1C(=O)[C@@H]1CCCN1C(=O)[C@H](CCCCN)NC(=O)[C@H](CC(=O)O)NC(=O)[C@@H](N)C(C)C)C(=O)N[C@@H](Cc1ccc(O)cc1)C(=O)N[C@@H](CC(N)=O)C(=O)N[C@@H](CCCN)C(N)=O,cELISA,"CD-1 mice, urine","subcutaneous, 4.34 µmol/kg, 1 h",,total urine concentration,251 mg/L
CCCCCCCCCCCCCCCC(=O)N[C@@H](CCC(=O)NCCOCCOCCC(=O)NCCOCCOCCC(=O)NCCCC[C@H](NC(=O)[C@H](CC(=O)O)NC(=O)[C@H](CC(C)C)NC(=O)[C@H](Cc1ccc(O)cc1)NC(=O)[C@H](CCCCN)NC(=O)[C@H](CO)NC(=O)[C@H](Cc1ccc(O)cc1)NC(=O)[C@H](CC(=O)O)NC(=O)[C@H](CO)NC(=O)[C@@H](NC(=O)[C@H](Cc1ccccc1)NC(=O)[C@@H](NC(=O)CNC(=O)[C@H](CCC(N)=O)NC(=O)[C@@H](CO)NC(=O)[C@@H](N)Cc1c[nH]cn1)[C@@H](C)O)[C@@H](C)O)C(=O)N[C@@H](CCCNC(=N)N)C(=O)N[C@@H](CCCNC(=N)N)C(=O)N[C@@H](C)C(=O)N[C@@H](CCC(N)=O)C(=O)N[C@@H](CC(=O)O)C(=O)N[C@@H](Cc1ccccc1)C(=O)N[C@H](C(=O)N[C@@H](CCC(N)=O)C(=O)N[C@@H](Cc1c[nH]c2ccccc12)C(=O)N[C@@H](CC(C)C)C(=O)N[C@@H](CC(C)C)C(=O)N[C@@H](CC(N)=O)C(=O)N[C@H](C(=O)NCC(=O)NCC(=O)N1CCC[C@H]1C(=O)N[C@@H](CO)C(=O)N[C@@H](CO)C(=O)NCC(=O)N[C@@H](C)C(=O)N1CCC[C@H]1C(=O)N1CCC[C@H]1C(=O)N1CCC[C@H]1C(=O)N[C@@H](CO)C(N)=O)[C@@H](C)O)C(C)C)C(=O)O,,"Sprague-Dawley rat, male","subcutaneous, 20 µg/kg once daily, 14 days",,urea,3.85 ± 0.66 mmol/L
Nc1nonc1-c1nnc2c(n1)-c1ccccc1C2=O,,BALB/c mice,"intraperitoneal, repeated, 3 weeks",,maximum tolerated dose,20 mg/kg

# A few entries again:
SMILES,assay,test system,conditions,scale,measurement,value
COc1cnc2cccc(N3CCc4c(cc(Cn5ccnc5)cc4-c4cn(C)nc4C(F)(F)F)C3=O)c2c1,,"BALB/c nude mice, MV4-11 xenograft","intraperitoneal, 50 mg/kg, day 31",,body weight,19.8 g and 20.2 g and 23.5 g and 24.5 g and 22.1 g
